Measured values pooled from the literature.
Lines come from different studies, so protocols differ. Numbers after ± are the reported error.

O=C([O-])CN1CCN(CC(=O)[O-])CCN(Cc2ccc([N+](=O)[O-])cc2)CCN(CC(=O)[O-])CC1.[67Ga+3] — intact radiolabelled complex (RP-TLC; murine plasma; 3 h, 37 °C, 5% CO2): 96.7 ± 0.5%
C[C@]12CC[C@@H]3c4ccc(O)cc4CC[C@H]3[C@@H]1C[C@@H](O)[C@@H]2O — maximum serum concentration (GC-MS; breast cancer women on NSAI, serum; vaginal, 0.03 mg daily, 24 h, day 28): 0 ng/mL
CCCCCCCCCCCCCCC[C@H](O)[C@@H](N)CO — AUC (human, phase I, plasma; intravenous, 480 mg/m^2, day 1, monotherapy): 82.7 µM·h
CC(C)CCCCC(=O)N[C@@H](CCN)C(=O)N[C@H](C(=O)N[C@@H](CCN)C(=O)N[C@H]1CCNC(=O)[C@H]([C@@H](C)O)NC(=O)[C@H](CCN)NC(=O)[C@H](CCN)NC(=O)[C@H](CC(C)C)NC(=O)[C@@H](Cc2ccccc2)NC(=O)[C@H](CCN)NC1=O)[C@@H](C)O — free Cmax (equilibrium dialysis LC-MS/MS; human patients, plasma; dose not given, median): 0.15 µg/mL
C=CC(=O)Nc1cc(Nc2nccc(-c3cn(C)c4ccccc34)n2)c(OC)cc1N(C)CCN(C)C — apparent volume of distribution (Sprague-Dawley rat, male, plasma; oral, 10 mg/kg): 112 ± 24.3 L/kg
CN[C@H]1CN(c2ccc3c(=O)c(C(=O)O)cn(-c4nccs4)c3n2)C[C@@H]1OC — mean residence time (human patients, plasma; intravenous, 9 to 50 mg/m^2 twice weekly, day 4, cycle 1, mean, noncompartmental): 34.4 h
CC(C)C(=O)Nc1ccc([N+](=O)[O-])c(C(F)(F)F)c1 — EC20 (mitochondrial swelling; BALB/cByJ female mouse liver mitochondria; 30 min, with: succinate + rotenone; baseline: CaCl2 maximal swelling): > 800 µM
CCCC[C@H](NC(C)=O)C(=O)N[C@H]1CCC(=O)NC[C@@H](C(=O)N[C@@H](Cc2c[nH]c3ccccc23)C(N)=O)NC(=O)[C@H](CCCNC(=N)N)NC(=O)[C@@H](Cc2ccccc2)NC(=O)[C@H](Cc2c[nH]cn2)NC1=O — CL/F (healthy human, both sexes, plasma; subcutaneous, 3.0 mg once daily, day 1, arithmetic mean): 298 mL/min
O=C(O)c1ccccc1Nc1cccc(C(F)(F)F)c1 — EC20 (mitochondrial swelling; BALB/cByJ female mouse liver mitochondria; 30 min, with: succinate + rotenone; baseline: CaCl2 maximal swelling): > 200 µM
Cc1c2oc3c(C)ccc(C(=O)N[C@@H]4C(=O)N[C@H](C(C)C)C(=O)N5CCC[C@H]5C(=O)N(C)CC(=O)N(C)[C@@H](C(C)C)C(=O)O[C@@H]4C)c3nc-2c(C(=O)N[C@@H]2C(=O)N[C@H](C(C)C)C(=O)N3CCC[C@H]3C(=O)N(C)CC(=O)N(C)[C@@H](C(C)C)C(=O)O[C@@H]2C)c(N)c1=O — AUC(0-6h) (mouse, FVB wild type, plasma; intravenous, 0.5 mg/kg): 0.152 µg·h/mL
CCOc1ccc2c(c1)C(C)=CC(C)(C)N2 — residue concentration (LC-MS/MS; laying hens, kidney; oral, 50 mg/kg feed, 56 days): 189.5 ± 1.3 ng/g
CCCCN1CCCCC1C(=O)Nc1c(C)cccc1C (stereo not shown) — EC20 (cytochrome c release, ELISA; BALB/cByJ female mouse liver mitochondria; 30 min; baseline: alamethicin maximal release): > 800 µM
CS(=O)(=O)n1cc2c(n1)CN([C@H]1CO[C@H](c3cc(F)ccc3F)[C@@H](N)C1)C2 — AUC(0-last) (healthy male human, plasma; oral, 0.5 mg, fasted single dose): 0.15 µM·h
Cc1cc(=O)n(-c2ccccc2)n1C — EC20 (mitochondrial swelling; BALB/cByJ female mouse liver mitochondria; 30 min, with: succinate + rotenone; baseline: CaCl2 maximal swelling): > 400 µM
CC1=C2C[C@H]3[C@@H](CC[C@@H]4C[C@H](NS(C)(=O)=O)CC[C@@]43C)[C@@H]2CC[C@@]2(C1)O[C@@H]1C[C@H](C)CN[C@H]1[C@H]2C — Tmax (patients, plasma; oral, 180 mg single, day -7, cycle 1): 5.47 h
COc1cc(Nc2ncc3c(n2)-c2ccc(Cl)cc2C(c2c(F)cccc2OC)=NC3)ccc1C(=O)O — AUC(0-8h) (human, phase I; oral, 30 mg single dose): 2.63 ± 0.607 µg·h/mL
CCN1C(=O)CNc2ncc(-c3ccc(-c4nc[nH]n4)nc3C)nc21 — AUC(0-24h) (human, plasma; oral, 10 mg twice daily, multiple doses): 0.766 µg·h/mL
COc1cc(Nc2ncc3c(n2)-c2ccc(Cl)cc2C(c2c(F)cccc2OC)=NC3)ccc1C(=O)O — AUC dosing interval (human, plasma; oral, 20 mg twice daily, day 7, steady state geometric mean): 10.2 µM·h
CC(C)(C)c1cc(NC(=O)Nc2ccc(Oc3ccnc4[nH]c(=O)cnc34)cc2F)n(-c2ccccc2)n1 — tumour concentration (female NSG and nude mice, tumour; oral, 20 mg/kg, 1 h after last dose, end of therapy): ~7 µM
CCc1cc2cc(O)cc(C(=O)c3cc(Br)c(O)c(Br)c3)c2o1 — microsomal CLint (metabolic stability; Sprague-Dawley rat, liver microsomes; 1 µM, pH 7.4): 11.2 µL/min/mg
CN(CCOc1ccc(CC2SC(=O)NC2=O)cc1)c1ccccn1 (stereo not shown) — intrinsic hepatic clearance (parallel tube model; human; from oral clearance): 746 L/h
O=C(O)CCc1cccc(O)c1O — mean concentration (human, fasted baseline, cerebrospinal fluid): 0.0159 µM
Cn1c(-c2ccc(C(N)=O)cc2F)nnc1C(C)(C)Oc1c(F)cc(Cl)cc1F — Cmax median (young Japanese adults, plasma; oral, 20 mg single dose, day 1, high-dose multiple-dose study): 0.214 µg/mL
O=P(O)(O)C(Cl)(Cl)P(=O)(O)O — EC20 (mitochondrial swelling; BALB/cByJ female mouse liver mitochondria; 30 min, with: succinate + rotenone; baseline: CaCl2 maximal swelling): > 400 µM
C=CC(=O)N1CCC(CNc2ncnc(N)c2-c2ccc(Oc3ccccc3)cc2)CC1 — Vz/F (human, plasma; oral, 100 mg single dose, geometric mean): 850 L
CC[C@H](C)[C@H](NC(=O)[C@H](Cc1ccccc1)NC(=O)[C@H](CCC(=O)O)NC(=O)[C@H](CCCCNC(=O)COCCOCCNC(=O)COCCOCCNC(=O)CC[C@H](NC(=O)CCCCCCCCCCCCCCCCC(=O)O)C(=O)O)NC(=O)[C@H](C)NC(=O)[C@H](C)NC(=O)[C@H](CCC(N)=O)NC(=O)CNC(=O)[C@H](CCC(=O)O)NC(=O)[C@H](CC(C)C)NC(=O)[C@H](Cc1ccc(O)cc1)NC(=O)[C@H](CO)NC(=O)[C@H](CO)NC(=O)[C@@H](NC(=O)[C@H](CC(=O)O)NC(=O)[C@H](CO)NC(=O)[C@@H](NC(=O)[C@H](Cc1ccccc1)NC(=O)[C@@H](NC(=O)CNC(=O)[C@H](CCC(=O)O)NC(=O)C(C)(C)NC(=O)[C@@H](N)Cc1cnc[nH]1)[C@@H](C)O)[C@@H](C)O)C(C)C)C(=O)N[C@@H](C)C(=O)N[C@@H](Cc1c[nH]c2ccccc12)C(=O)N[C@@H](CC(C)C)C(=O)N[C@H](C(=O)N[C@@H](CCCNC(=N)N)C(=O)NCC(=O)N[C@@H](CCCNC(=N)N)C(=O)NCC(=O)O)C(C)C — dose-corrected accumulation ratio (Japanese subjects; subcutaneous once weekly, 1.0 mg, geometric mean; baseline: steady state over single dose): 2.09
COc1cc(/C=C/C(=O)CC(=O)/C=C/c2ccc(O)c(OC)c2)ccc1O — brain uptake ratio (I-125 label; C57BL/6J mouse, cerebellum; intranasal vs intraperitoneal, 10 µg/mouse IN, 100 µg/mouse IP, 4 h; baseline: intranasal over intraperitoneal): 7.64
CC(C)[C@H](NC(=O)[C@@H]1CCCN1C(=O)[C@H](CCCNC(=N)N)NC(=O)[C@H](CS)NC(=O)[C@H](Cc1c[nH]c2ccccc12)NC(=O)[C@H](CCCNC(=N)N)NC(=O)[C@@H](Cc1ccccc1)NC(=O)[C@H](Cc1c[nH]cn1)NC(=O)[C@H](CCC(=O)O)NC(=O)[C@H](CS)NC(=O)[C@H](CS)NC(=O)[C@H](CCCCN)NC(=O)[C@@H]1CC(=O)N[C@@H](CCCNC(=N)N)C(=O)N[C@@H]([C@@H](C)O)C(=O)N[C@@H](CC(=O)O)C(=O)N[C@H](Cc2ccc(O)cc2)C(=O)N1)C(N)=O [technetium-99m labelled] — uptake ratio (C57 mouse, female, B16/F1 melanoma; intravenous, 2 h, with: NDP-MSH 10 µg co-injected; baseline: tumour over kidneys): 0.03
N#Cc1ccc(OCC2=C(C(F)F)C(=O)c3ccccc3C2=O)cc1 — cathodic peak potential (cyclic voltammetry; DMSO; first wave, vs Ag/AgCl): -0.414 V
CC[C@H](C)[C@H](NC(=O)[C@H](CO)NC(=O)[C@H](Cc1ccc(O)cc1)NC(=O)[C@H](CC(=O)O)NC(=O)[C@H](CO)NC(=O)[C@@H](NC(=O)[C@H](Cc1ccccc1)NC(=O)[C@@H](NC(=O)CNC(=O)[C@H](CCC(=O)O)NC(=O)[C@H](C)NC(=O)[C@@H](N)Cc1ccc(O)cc1)[C@@H](C)O)[C@@H](C)CC)C(=O)N[C@@H](C)C(=O)N[C@@H](CCSC)C(=O)N[C@@H](CC(=O)O)C(=O)N[C@@H](CCCCN)C(=O)N[C@H](C(=O)N[C@@H](CCCNC(=N)N)C(=O)N[C@@H](CCC(N)=O)C(=O)N[C@@H](CCC(N)=O)C(=O)N[C@@H](CC(=O)O)C(=O)N[C@@H](Cc1ccccc1)C(=O)N[C@H](C(=O)N[C@@H](CC(N)=O)C(=O)N[C@@H](Cc1c[nH]c2ccccc12)C(=O)N[C@@H](CC(C)C)C(=O)N[C@@H](CC(C)C)C(=O)N[C@@H](C)C(=O)N[C@@H](CCC(N)=O)C(=O)N[C@@H](CCCNC(=N)N)C(=O)NCC(=O)N[C@@H](CCCCN)C(=O)N[C@@H](CCCCN)C(=O)N[C@@H](CO)C(=O)N[C@@H](CC(=O)O)C(=O)N[C@@H](Cc1c[nH]c2ccccc12)C(=O)N[C@@H](CCCCN)C(=O)N[C@@H](Cc1c[nH]cn1)C(=O)N[C@@H](CC(N)=O)C(=O)N[C@H](C(=O)N[C@H](C(=O)N[C@@H](CCC(N)=O)C(=O)O)[C@@H](C)O)[C@@H](C)CC)C(C)C)[C@@H](C)CC — apparent half-life (radioimmunoassay, item: intact compound; C57BL/6 mice, female, fasted, plasma; intravenous, 25 nmol/kg): ~1.5 min
COc1cccc(N2CCN(C3=Nc4c(F)cccc4[C@H](CC(=O)O)N3c3cc(C(F)(F)F)ccc3OC)CC2)c1 — MRT (UHPLC-MS/MS; healthy women, plasma; intravenous infusion, 240 mg single dose, 30 min infusion, HPβCD formulation): 5.61 ± 1.22 h
COc1ccc2[nH]c([S+]([O-])Cc3ncc(C)c(OC)c3C)nc2c1 (stereo not shown) — AUC(0-6 h) (human, dried blood spots; dose not given, prasugrel alone session): 0.0819 µg·h/mL
CC(C)C[C@H](NC(=O)CNC(=O)c1cc(Cl)ccc1Cl)B(O)O — C0 (human, plasma; intravenous bolus, 0.125 mg/m^2, day 1): 0.00743 µg/mL
CCOC(=O)CN[C@@H](C(=O)N1CC[C@H]1C(=O)NCc1ccc(/C(N)=N\O)cc1)C1CCCCC1 — EC20 (cytochrome c release, ELISA; BALB/cByJ female mouse liver mitochondria; 30 min; baseline: alamethicin maximal release): > 800 µM
O=C(c1nc2n(n1)[C@H](c1ccccc1)C[C@@H]2F)C1CC1 — Vd/F (human, plasma; oral, 5 mg, single dose, fasted, healthy volunteers): 82.1 L
CCN1CCN(Cc2ccc(Nc3ncc(F)c(-c4cc(F)c5nc(C)n(C(C)C)c5c4)n3)nc2)CC1 — fraction absorbed (population PK model; human; oral): 45.8%
CCN1CCN(c2ccc(Nc3cc(N(C)C(=O)Nc4c(Cl)c(OC)cc(OC)c4Cl)ncn3)cc2)CC1 — AUC(0-t) (LC-MS/MS; juvenile male Crl:WI(Han) rats, plasma; oral gavage, 0.3 mg/kg/day, postnatal day 17): 0.103 µg·h/mL
CS(=O)(=O)n1cc2c(n1)CN([C@H]1CO[C@H](c3cc(F)ccc3F)[C@@H](N)C1)C2 — Ctrough (healthy Japanese men, plasma; oral, 10 mg once weekly, day 1): 0.0104 µM
CCCC[C@@H]1NC(=O)[C@@H](NC(=O)[C@H](CCC(=O)O)NC(=O)CNC(=O)CN2CCN(CC(=O)O)CCN(CC(=O)O)CCN(CC(=O)O)CC2)CCCCNC(=O)C[C@@H](C(N)=O)NC(=O)[C@H](C(C)C)NC(=O)[C@@H]2CCCN2C(=O)[C@H](CCCNC(=N)N)NC(=O)CNC(=O)[C@H](Cc2c[nH]c3ccccc23)NC(=O)[C@H](CCCNC(=N)N)NC(=O)[C@@H](Cc2ccccc2)NC(=O)[C@H](Cc2c[nH]cn2)NC(=O)[C@H](CCC(=O)O)NC1=O [indium-111 labelled] — tissue uptake (C57 mice, B16/F10 lung metastatic melanoma, spleen; intravenous, 0.037 MBq, 4 h): 0.11 ± 0.05 %ID/g
CC(C)(c1ccc(O)cc1)c1ccc(O)cc1 — half-life (GC-MS; exposure tank water with snails, reconstituted water; 250 ng/L nominal, 20 °C): 3.04 h
Clc1ccccc1C(c1ccccc1)(c1ccccc1)n1ccnc1 — EC20 (cytochrome c release, ELISA; BALB/cByJ female mouse liver mitochondria; 30 min; baseline: alamethicin maximal release): > 800 µM
COCCCCn1c(C(=O)N(CC(C)C)[C@@H]2CNC[C@H](C(=O)N3CCOCC3)C2)nc2ccccc21 — AUC(0-tau) (human, elderly, plasma; oral, 80 mg once daily, day 7, mean): 6.02 µg·h/mL
CC(C)NC[C@@H](C(=O)N1CCN(c2ncnc3c2[C@H](C)C[C@H]3O)CC1)c1ccc(Cl)cc1 — CL/F (human, hepatic impairment Healthy (Child-Pugh), plasma; oral, 100 mg single, geometric mean): 5230 mL/min
CNC(=O)c1cc(Oc2ccc(NC(=O)Nc3ccc(Cl)c(C(F)(F)F)c3)cc2)ccn1 — t1/2 (LC-MS/MS; nude mouse subcutaneous tumour model, tumour tissue; intratumoral, 2 mg/kg, PDC 3 control): 28.4 ± 9.86 h
NCCS(=O)(=O)O — EC20 (cytochrome c release, ELISA; BALB/cByJ female mouse liver mitochondria; 30 min; baseline: alamethicin maximal release): > 800 µM
CC(=O)N[C@@H](Cc1ccccc1)C(=O)N[C@H]1CCCNC(=O)[C@H](CCCNC(=N)N)NC(=O)[C@H](Cc2c[nH]c3ccccc23)NC(=O)[C@@H](CC2CCCCC2)NC(=O)[C@@H]2CCCN2C1=O — elimination half-life (C57BL/6J mice, spinal cord; intravenous, 1 mg/kg): 1.75 h
